Measured values gathered from unrelated publications.
Lines come from different studies, so protocols differ. Several values in a cell are separate wells, animals, samples, runs or records.
Target: Mitogen-activated protein kinase 1 (MAPK1, Homo sapiens, UniProt P28482)
Sequence of UniProt P28482 (whole entry, looked up): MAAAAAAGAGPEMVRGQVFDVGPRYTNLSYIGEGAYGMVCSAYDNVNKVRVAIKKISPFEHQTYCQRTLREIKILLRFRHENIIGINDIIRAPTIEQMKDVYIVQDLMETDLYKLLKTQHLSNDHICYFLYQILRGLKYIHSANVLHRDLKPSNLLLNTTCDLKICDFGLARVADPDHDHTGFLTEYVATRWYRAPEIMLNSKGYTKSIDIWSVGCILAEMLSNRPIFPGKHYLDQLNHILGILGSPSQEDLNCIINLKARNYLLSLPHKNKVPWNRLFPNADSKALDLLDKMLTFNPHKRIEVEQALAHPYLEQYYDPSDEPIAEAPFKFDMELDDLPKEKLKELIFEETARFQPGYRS

| Structure (SMILES) | assay | setting | how to read | endpoint | result |
| --- | --- | --- | --- | --- | --- |
| c1cnc2ccc(Nc3nc(NC4CC4)c4nc[nH]c4n3)cc2c1 | kinase activity, inhibitor, SelectScreen kinase profiling | 1 µM | relative to: control | remaining activity | 85% |
| COCCNc1nc2ccc(C#CC3(O)CCCCC3)cc2n1-c1ccnc(N)n1 | enzyme activity, inhibitor, Z'-LYTE | 1 µM | relative to: no-inhibitor control | remaining kinase activity | 11.3% |
| CN1CC(Oc2cnc(C#N)cc2-c2ccn3nc(NC(=O)C4CC4)cc3c2)C1 | inhibitor, KinaseProfiler panel | 1 µM |  | inhibition | -8% |
| COc1cc(F)ccc1-c1ncnc(Nc2cccc(C[S@](C)(=N)=O)c2)n1 | kinase activity | 10 µM, added: 10 µM ATP |  | remaining activity | 92% |
| COc1cc(-c2cncc3c2CN(C)Cc2cc(N4CCNCC4)ccc2-3)cc(OC)c1OC | kinase activity | 1 µM, human enzyme, added: ATP 10 µM | relative to: DMSO control | remaining activity | 110% |
| O=C(Nc1ccc2[nH]nc(-c3ccncc3)c2c1)[C@@H]1CCN(CC(=O)N2CCN(c3ccc(-c4ncccn4)cc3)CC2)C1 | kinase activity, Kinase-Glo luminescence | concentration not given |  | normalized luminescence | 1.19 and 1.15 and 1.42 |
| O=C1NC(=O)/C(=C/c2ccc(-c3ccc(F)cc3O)o2)S1 | enzyme activity | 10 µM |  | remaining activity | 104% |
| C=CC(=O)N1CCC[C@@H](n2nc(-c3ccc(Oc4ccccc4)cc3)c3c(N)ncnc32)C1 |  | 1 µM |  | remaining activity | 62.7% |

For quick reference, copied from above:
| Structure (SMILES) | assay | setting | how to read | endpoint | result |
| --- | --- | --- | --- | --- | --- |
| O=C(Nc1ccc2[nH]nc(-c3ccncc3)c2c1)[C@@H]1CCN(CC(=O)N2CCN(c3ccc(-c4ncccn4)cc3)CC2)C1 | kinase activity, Kinase-Glo luminescence | concentration not given |  | normalized luminescence | 1.19 and 1.15 and 1.42 |
